Published values pooled from the literature.
Compare with care: the assays were run in different laboratories. Square brackets hold non-standard residues; d marks the D form. Bridges are numbered along the chain shown (N, C = ends). Where no end group is shown, it is not given here. The star is where a group is joined.
RPLP2: RPLP2 (Homo sapiens, UniProt P05387)
UniProt P05387, sequence (whole entry, looked up): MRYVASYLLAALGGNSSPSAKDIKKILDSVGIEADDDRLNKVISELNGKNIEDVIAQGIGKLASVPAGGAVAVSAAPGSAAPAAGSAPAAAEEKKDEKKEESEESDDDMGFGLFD
Mapk14: Mapk14, pT180, pY182 (Rattus norvegicus, UniProt P70618)
UniProt P70618, sequence (whole entry, unmodified, looked up): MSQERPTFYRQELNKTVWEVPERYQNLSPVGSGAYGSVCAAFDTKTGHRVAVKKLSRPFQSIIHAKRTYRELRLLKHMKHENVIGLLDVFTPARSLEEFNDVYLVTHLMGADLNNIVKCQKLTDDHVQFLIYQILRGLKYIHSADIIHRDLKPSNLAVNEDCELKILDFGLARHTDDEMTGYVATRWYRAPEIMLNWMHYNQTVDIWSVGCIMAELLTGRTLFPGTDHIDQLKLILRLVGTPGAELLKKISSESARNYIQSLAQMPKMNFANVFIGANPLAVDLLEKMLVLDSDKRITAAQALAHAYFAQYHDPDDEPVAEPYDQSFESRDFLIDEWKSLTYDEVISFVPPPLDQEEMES
B1: CDC34 171-270 (Saccharomyces cerevisiae, UniProt P14682); chain IPKGFIMPTSESAYISQSKLDEPESNKDMADNFWYDSDLDDDENGSVILQDDDYDDGNNHIPFEDDDVYNYNDNDDDDERIEFEDDDDDDDDSIDNDSVM
UniProt Q9H6P5, sequence (whole entry, looked up): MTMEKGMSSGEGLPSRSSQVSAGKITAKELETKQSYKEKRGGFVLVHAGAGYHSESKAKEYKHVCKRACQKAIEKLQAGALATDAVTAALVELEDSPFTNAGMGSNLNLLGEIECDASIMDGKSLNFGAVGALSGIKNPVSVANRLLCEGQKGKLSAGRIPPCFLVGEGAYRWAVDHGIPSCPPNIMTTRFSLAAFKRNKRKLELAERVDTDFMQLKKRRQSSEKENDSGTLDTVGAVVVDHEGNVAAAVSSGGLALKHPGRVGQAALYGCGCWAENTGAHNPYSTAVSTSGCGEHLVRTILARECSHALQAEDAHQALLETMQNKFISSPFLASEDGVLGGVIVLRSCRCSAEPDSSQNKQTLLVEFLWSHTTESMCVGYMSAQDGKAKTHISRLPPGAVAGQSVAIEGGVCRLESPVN
UniProt P07724, sequence (whole entry, looked up): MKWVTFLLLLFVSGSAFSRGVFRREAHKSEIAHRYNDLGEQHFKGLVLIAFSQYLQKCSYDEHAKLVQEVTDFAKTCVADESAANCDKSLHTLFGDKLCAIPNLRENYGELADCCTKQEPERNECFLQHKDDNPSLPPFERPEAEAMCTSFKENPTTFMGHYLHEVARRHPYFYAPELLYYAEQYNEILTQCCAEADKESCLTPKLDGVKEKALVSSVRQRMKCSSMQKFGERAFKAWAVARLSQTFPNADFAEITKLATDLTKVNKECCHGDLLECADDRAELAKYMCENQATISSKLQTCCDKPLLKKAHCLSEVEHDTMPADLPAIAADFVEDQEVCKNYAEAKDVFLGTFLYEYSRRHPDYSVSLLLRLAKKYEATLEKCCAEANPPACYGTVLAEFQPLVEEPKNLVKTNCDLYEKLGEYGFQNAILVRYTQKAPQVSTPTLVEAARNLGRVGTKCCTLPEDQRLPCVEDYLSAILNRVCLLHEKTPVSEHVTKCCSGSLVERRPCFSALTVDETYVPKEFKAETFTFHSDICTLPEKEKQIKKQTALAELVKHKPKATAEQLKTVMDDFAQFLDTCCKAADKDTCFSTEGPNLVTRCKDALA
UniProt O60656, sequence (whole entry, looked up): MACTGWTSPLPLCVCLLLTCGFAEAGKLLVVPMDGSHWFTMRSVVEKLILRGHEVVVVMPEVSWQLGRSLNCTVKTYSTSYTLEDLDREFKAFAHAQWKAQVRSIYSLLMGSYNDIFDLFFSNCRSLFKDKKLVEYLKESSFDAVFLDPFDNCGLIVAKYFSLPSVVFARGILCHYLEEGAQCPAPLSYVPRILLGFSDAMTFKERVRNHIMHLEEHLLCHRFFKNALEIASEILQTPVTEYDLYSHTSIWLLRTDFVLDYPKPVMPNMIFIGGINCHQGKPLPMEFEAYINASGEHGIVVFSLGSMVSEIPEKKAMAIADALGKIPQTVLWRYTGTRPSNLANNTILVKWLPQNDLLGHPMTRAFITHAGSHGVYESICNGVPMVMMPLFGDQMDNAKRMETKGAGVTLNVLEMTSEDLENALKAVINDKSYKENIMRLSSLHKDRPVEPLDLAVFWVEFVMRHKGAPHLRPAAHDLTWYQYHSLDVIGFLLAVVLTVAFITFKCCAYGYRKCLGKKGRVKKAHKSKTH
UniProt P12259, sequence (whole entry, unmodified, looked up): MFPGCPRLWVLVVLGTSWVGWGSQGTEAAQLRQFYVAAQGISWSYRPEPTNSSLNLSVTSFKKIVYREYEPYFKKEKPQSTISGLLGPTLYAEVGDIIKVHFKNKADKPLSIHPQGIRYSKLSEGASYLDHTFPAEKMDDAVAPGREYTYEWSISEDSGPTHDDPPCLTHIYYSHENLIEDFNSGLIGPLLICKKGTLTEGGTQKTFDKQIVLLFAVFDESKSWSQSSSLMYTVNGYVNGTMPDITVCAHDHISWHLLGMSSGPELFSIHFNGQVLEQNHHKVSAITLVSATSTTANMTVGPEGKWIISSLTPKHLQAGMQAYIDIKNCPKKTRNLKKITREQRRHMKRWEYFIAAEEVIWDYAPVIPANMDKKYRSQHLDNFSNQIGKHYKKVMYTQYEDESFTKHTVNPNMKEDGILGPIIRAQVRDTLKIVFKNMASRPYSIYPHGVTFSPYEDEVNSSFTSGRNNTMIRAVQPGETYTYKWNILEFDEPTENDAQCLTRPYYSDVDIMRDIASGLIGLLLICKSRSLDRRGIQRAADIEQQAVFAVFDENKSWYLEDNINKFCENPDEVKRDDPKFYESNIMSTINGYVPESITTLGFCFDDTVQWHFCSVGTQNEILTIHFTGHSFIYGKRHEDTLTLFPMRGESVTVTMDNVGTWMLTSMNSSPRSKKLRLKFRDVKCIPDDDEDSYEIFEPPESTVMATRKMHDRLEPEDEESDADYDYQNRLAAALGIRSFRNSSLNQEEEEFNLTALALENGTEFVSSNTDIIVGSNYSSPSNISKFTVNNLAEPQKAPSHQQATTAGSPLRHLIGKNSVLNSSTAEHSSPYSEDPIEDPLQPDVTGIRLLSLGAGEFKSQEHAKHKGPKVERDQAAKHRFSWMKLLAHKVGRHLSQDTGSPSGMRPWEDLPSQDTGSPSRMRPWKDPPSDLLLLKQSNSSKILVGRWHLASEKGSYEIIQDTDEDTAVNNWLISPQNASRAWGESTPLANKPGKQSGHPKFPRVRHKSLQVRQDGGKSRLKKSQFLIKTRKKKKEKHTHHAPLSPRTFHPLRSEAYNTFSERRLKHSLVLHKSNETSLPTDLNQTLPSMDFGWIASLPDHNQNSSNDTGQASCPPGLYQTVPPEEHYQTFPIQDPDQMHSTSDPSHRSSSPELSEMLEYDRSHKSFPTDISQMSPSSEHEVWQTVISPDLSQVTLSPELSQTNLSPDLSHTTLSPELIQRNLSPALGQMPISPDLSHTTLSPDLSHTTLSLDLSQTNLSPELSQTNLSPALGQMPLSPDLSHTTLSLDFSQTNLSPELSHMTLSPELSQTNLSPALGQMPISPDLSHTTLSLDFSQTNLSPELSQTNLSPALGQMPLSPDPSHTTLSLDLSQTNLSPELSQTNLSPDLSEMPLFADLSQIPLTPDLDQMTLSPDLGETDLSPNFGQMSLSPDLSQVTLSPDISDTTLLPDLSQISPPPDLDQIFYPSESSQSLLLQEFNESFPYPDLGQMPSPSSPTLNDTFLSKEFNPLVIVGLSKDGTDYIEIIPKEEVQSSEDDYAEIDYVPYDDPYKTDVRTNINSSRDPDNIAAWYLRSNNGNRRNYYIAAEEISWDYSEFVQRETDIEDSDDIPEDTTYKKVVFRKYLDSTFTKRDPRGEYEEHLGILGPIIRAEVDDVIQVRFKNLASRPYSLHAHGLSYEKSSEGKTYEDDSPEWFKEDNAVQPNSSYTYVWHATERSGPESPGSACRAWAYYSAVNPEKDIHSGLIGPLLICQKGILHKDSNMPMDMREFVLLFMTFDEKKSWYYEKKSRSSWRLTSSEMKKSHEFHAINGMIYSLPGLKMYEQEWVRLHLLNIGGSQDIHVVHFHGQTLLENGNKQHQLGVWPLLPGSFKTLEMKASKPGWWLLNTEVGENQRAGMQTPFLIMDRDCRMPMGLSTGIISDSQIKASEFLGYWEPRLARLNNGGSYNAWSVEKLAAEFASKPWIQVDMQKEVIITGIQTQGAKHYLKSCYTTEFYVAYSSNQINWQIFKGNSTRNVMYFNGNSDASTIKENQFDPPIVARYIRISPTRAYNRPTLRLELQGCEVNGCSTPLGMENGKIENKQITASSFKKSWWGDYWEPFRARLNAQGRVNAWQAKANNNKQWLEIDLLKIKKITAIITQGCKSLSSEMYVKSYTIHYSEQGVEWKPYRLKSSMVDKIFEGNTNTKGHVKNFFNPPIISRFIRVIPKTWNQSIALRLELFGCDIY

Under “IFN-gamma+ TNF-alpha+ cells”, `SIIVFEKL` is recorded as 0.71% (OT-I CD8+ T cells; measured: IFN-gamma, TNF-alpha; peptide; concentration not given, primed 5 d, OVA257 100 ng/mL restimulation, with: no TGF-beta1).
`Trichosanthin fragment D176A (Trichosanthes kirilowii)` gave an IC50 of 0.038 nM (RPLP2; in vitro translation inhibition; rabbit reticulocyte lysate).
`SIYNFEKL` — result for “IFN-gamma single producers”: 0.27% (OT-I CD8+ T cells; peptide; primed 5 d, OVA257 100 ng/mL restimulation, with: no TGF-beta1).
`YASKGKKRNPGLKIPK (MAP2K6 residues 4-17 (Homo sapiens))` gave an IC50 of 65000 nM (Mapk14 N159K/E160S/E163T, pT180, pY182 (Rattus norvegicus, UniProt P70618); kinase activity, inhibitor, competitive kinase inhibition assay; peptide; with: ATP 1 mM).
The IC50 of `TFPI (Homo sapiens, UniProt P10646-1)` is reported as 30.3 nM (F5 B-domain deleted 811-1490 R709Q/R1545Q (UniProt P12259); prothrombinase inhibition, inhibitor; with: enoxaparin 0.8 u/mL).
With `YASPSRRRKLSLNIPI (RASGRF1 D-site peptide (Homo sapiens))` the IC50 was 2400 nM (Mapk14; kinase activity, inhibitor, competitive kinase inhibition assay; peptide; with: ATP 1 mM).
The IC50 of `B1 (CDC34 171-270)` is reported as 16000 nM (SKP1/CDC53/CDC4/HRT1 SCF complex (Saccharomyces cerevisiae); Sic1 ubiquitylation, inhibitor; 1 min).
The IC50 of `Ac-ISQL[Asp(vs)]-OH (KMT2A residues 2714-2718, N-acetyl, P1 Asp vinyl sulfone, free C-terminal acid; N-acetyl, P1 Asp vinyl sulfone, free C-terminal acid; Asp(vs) = vinyl sulfone at the side chain of the P1 aspartic acid)` is reported as over 100000 nM (TASP1 (Homo sapiens, UniProt Q9H6P5); Taspase1 cleavage inhibition, inhibitor, FRET reporter assay; peptide; added simultaneously with substrate).
With `HSPA1A (Homo sapiens, UniProt P0DMV8)` the IC50 was 670 nM (MAPT (Homo sapiens, UniProt P10636-6); tau aggregation, ThS fluorescence, inhibitor; with: ARA).
`RLIEDICLPRWGCLWEDDK(IRDye800CW)-NH2 (cyclic albumin-binding peptide; disulfide 7-13; Cys7-Cys13 disulfide, IRDye800CW on Lys, C-terminal amide; IRDye800CW = CC1(C)C(/C=C/C2=C(Oc3ccc(S(=O)(=O)O)cc3)C(=C/C=C3/N(CCCCS(=O)(=O)O)c4ccc(S(=O)(=O)O)cc4C3(C)C)/CCC2)=[N+](CCCCCC(=O)*)c2ccc(S(=O)(=O)[O-])cc21)` gave an IC50 of 44.8 nM (Alb (Mus musculus, UniProt P07724); competition with ligand, competitive plate binding assay; peptide, coated plate).
`YAGRRKERPTSLNVFP (MAPK8IP3 D-site peptide (Homo sapiens))` gave an IC50 of over 100000 nM (Mapk14; kinase activity, inhibitor, competitive kinase inhibition assay; peptide; with: ATP 1 mM).
With `Trichosanthin fragment R174A (Trichosanthes kirilowii)` the IC50 was 0.16 nM (RPLP2; in vitro translation inhibition; rabbit reticulocyte lysate).
The Vmax/Km of `UGT1A9 (Homo sapiens, UniProt O60656)` is reported as 26000 µL/min/mg (COc1cc(OC)c2c(=O)c(O)c(-c3ccccc3)oc2c1; steady-state kinetics; pH 7.4, 37 °C).

Excerpt of the above:
`RLIEDICLPRWGCLWEDDK(IRDye800CW)-NH2 (cyclic albumin-binding peptide; disulfide 7-13; Cys7-Cys13 disulfide, IRDye800CW on Lys, C-terminal amide; IRDye800CW = CC1(C)C(/C=C/C2=C(Oc3ccc(S(=O)(=O)O)cc3)C(=C/C=C3/N(CCCCS(=O)(=O)O)c4ccc(S(=O)(=O)O)cc4C3(C)C)/CCC2)=[N+](CCCCCC(=O)*)c2ccc(S(=O)(=O)[O-])cc21)` gave an IC50 of 44.8 nM (Alb (Mus musculus, UniProt P07724); competition with ligand, competitive plate binding assay; peptide, coated plate).
